Measurements pooled from the literature.
A part holds a random share of what one study measured. Changes are numbered by the printed parent chain.

Set 1 — target: CCND3, cyclin fold, Cln2 fusion (human); method: yeast growth competition, sequencing; medium: yeast; setting: weak parent motif; reference: not given; direction: higher = stronger binding
Starting sequence: CDKN1B docking peptide (human); PSACRNLFGPVDH; partner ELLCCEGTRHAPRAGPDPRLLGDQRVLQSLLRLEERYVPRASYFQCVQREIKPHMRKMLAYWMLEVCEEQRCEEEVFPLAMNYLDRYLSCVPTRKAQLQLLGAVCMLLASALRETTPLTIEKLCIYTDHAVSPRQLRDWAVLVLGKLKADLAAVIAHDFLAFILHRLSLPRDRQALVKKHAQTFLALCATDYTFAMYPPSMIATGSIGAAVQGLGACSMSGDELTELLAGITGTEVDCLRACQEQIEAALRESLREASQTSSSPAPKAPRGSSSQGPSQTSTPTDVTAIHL
| Variant | normalised enrichment score |
| --- | --- |
| V11I | 0.192 |
| L7C | -0.00452 |
| P1D | 0.064 |
| R5Y | 0.122 |
| G9N | 0.134 |

Set 2 — method: protein-binding microarray; form: double-stranded DNA, one strand shown; medium: in vitro; concentration: not given; direction: higher = stronger binding
Target: Max dimerization protein 1, bHLH-zipper, MAX partner unstated (MXD1, Homo sapiens, UniProt Q05195, residues 56-136)
Setting: k-mer, scored over probes, only values ≥0.25
Residues (chain): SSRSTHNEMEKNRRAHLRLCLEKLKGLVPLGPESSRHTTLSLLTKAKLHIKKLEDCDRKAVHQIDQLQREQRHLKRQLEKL
| Sequence | E-score |
| --- | --- |
| ATGCGCCC | 0.271 |
| CTCCCCTC | 0.264 |
| ACCATGGA | 0.254 |
| ACCCACCT | 0.303 |
| AGCATGGG | 0.397 |

Set 3 — method: RNA Bind-n-Seq; form: RNA; medium: in vitro; concentration: 365 nM; reference: no-protein control; direction: higher = stronger binding
Target: RNA binding protein fox-1 homolog 2, RRM domain, GST-SBP tag (RBFOX2, Homo sapiens, UniProt O43251-10, residues 100-194)
Setting: natural RNA segment, single round, ends assumed
All sequences stand within: GGGAGUUCUACAGUCCGACGAUC … UGGAAUUCUCGGGUGCCAA
| Sequence | RBNS enrichment (R) |
| --- | --- |
| CAAGAAUAAAAGCCUCUAUGAUCCAGAGUUGCUAUGCACCAAAUUUUGAUGCCUUUUAAAUACCUUGAUGCCUAUAGCAUUAGAAAUGCUUUCCUAUUUAAAACAGGUUA | 0.546 |
| CAUUUUCUCCAAAGCAGGCUGCCUCUUCAGCAGGAGCAAAUACUUUAAUUUAAAAGAAUGAUUAUCUGUUUUCUCCUUUUAGAAAAAGAGUCUAAGAAACACAGCAUGUG | 17 |
| UGGACAGGAUUGAAAUCUCACAUGGGUGGAAAGGGAAUAAUAACCAUAAACCUUAAUCUGGAGAAGAAGUUUUGAUGCUGGAAGUGAGCAUCAGCUAUUGAGAUAGGCCU | 0.41 |
| AGUAGCCCUGUAAGGAGGGGCAGAGUGGCUGGUGCUACAGACGUCACAUGGGCUCUUUGGGGGUCUGUCUGCUGGGGCAGGAAUAAUCCCAGUUCUCUGACUCUCGCUCU | 0.653 |
| ACAGCAUGCUACAGGACAGACCUGCUCUGGAAGCCUGUCAUAGUAAGGCUGGCGUGGCACGUUUGGGGACUCUGCCAGUCGGAGUUGCUGGGCACAUGCUGUGUACCACC | 0.614 |
| AAUCAUUUUUGUUUAACUGAGGAUAUCUAGUGUCUGCUUCAUAGGGUGCUUUGAAAUAUAAAAUGAAAACUUAUUUAUACUGUUUUUACAACAGUCAAAAAGGAAACACA | 0.697 |

Single results of other studies
| Substance | target | test | test system | conditions | scale | quantity | result |
| --- | --- | --- | --- | --- | --- | --- | --- |
| PhoQ, residues 284 288 289 292 302 303 AQGLTV | PhoP, residues 12 14 15 18 19 DLLYY (Escherichia coli, UniProt P23836) | Sort-seq, measured: YFP reporter | E. coli | PhoQ-PhoP variant library, with: 10 µM Mg2+ | reference: high Mg2+ state, higher = stronger signaling | fold induction | 1.17 |
